Measured values from different studies.
Parts stem from different laboratories: compare values within a part only. pKd: −log10 of the molar value.

Series 1
Target: Spike glycoprotein (Severe acute respiratory syndrome coronavirus 2, UniProt P0DTC2)
Read-out: binding
Technique: BLI
| SMILES | pKd |
| --- | --- |
| O=c1c(O)c(-c2ccc(O)cc2O)oc2cc(O)cc(O)c12 | 4.14 |
| CC(C)=CCc1c(O)ccc(C(=O)/C=C/c2ccc(O)cc2)c1O | 5.06 |
| C[C@H]1CC[C@@]2(OC1)O[C@H]1C[C@H]3[C@@H]4CC[C@@H]5C[C@@H](O[C@@H]6O[C@H](CO)[C@H](O)[C@H](O)[C@H]6O[C@@H]6O[C@H](CO)[C@@H](O)[C@H](O)[C@H]6O)CC[C@]5(C)[C@H]4CC[C@]3(C)[C@H]1[C@@H]2C | 4.87 |

Other studies, line by line
rep main protease: Replicase polyprotein 1ab, main protease (rep, Severe acute respiratory syndrome coronavirus 2, UniProt P0DTD1)
| SMILES | tested on | assay | test system | setting | quantity | value |
| --- | --- | --- | --- | --- | --- | --- |
| NC(=O)c1cc(C(=O)NC[C@H]2CN(C(=O)/C=C/c3cccnc3)Cc3ccccc32)c[nH]1 | rep main protease | enzyme activity, inhibitor | – | 5 µM, mean of runs | inhibition | 34.4% |
| Nc1ncnc2c([C@@H]3N[C@H](CO)[C@@H](O)[C@H]3O)c[nH]c12 | Junin virus | viral replication | HeLa, Romero | 50 µM | inhibition | 57.2% |
| NC(=O)[C@@H](CCC(F)(F)F)N(Cc1ccc(-c2ncon2)cc1F)S(=O)(=O)c1ccc(Cl)cc1 | rep main protease | reporter gene (Gaussia luciferase), inhibitor | – | 20 µM | inhibition | 0.683% |
| O=C(Cc1cccnc1)N1CCC[C@H]([C@H]2CCN(C(=O)C3=CO[C@H]4C=CC(F)=CC4=C3)C2)C1 | rep main protease | enzyme activity, inhibitor | – | 5 µM, run 2 | inhibition | 15.4% |
| CC[C@H](C)[C@H](NC(=O)[C@H](CC(C)C)NC(=O)[C@H](Cc1c[nH]c2ccccc12)NC(=O)[C@H](CCC(N)=O)NC(=O)[C@@H](NC(=O)[C@H](Cc1ccccc1)NC(=O)[C@H](C)NC(=O)[C@H](CCCCNC(=O)COCCOCCNC(=O)COCCOCCNC(=O)CC[C@H](NC(=O)CCCCCCCCCCCCCCCCCCC(=O)O)C(=O)O)NC(=O)[C@H](CCC(N)=O)NC(=O)[C@H](C)NC(=O)[C@@H](NC(=O)[C@H](CCCCN)NC(=O)[C@H](CC(=O)O)NC(=O)[C@H](CC(C)C)NC(=O)C(C)(C)NC(=O)[C@@H](NC(=O)[C@H](CO)NC(=O)[C@H](Cc1ccc(O)cc1)NC(=O)[C@H](CC(=O)O)NC(=O)[C@H](CO)NC(=O)[C@@H](NC(=O)[C@H](Cc1ccccc1)NC(=O)[C@@H](NC(=O)CNC(=O)[C@H](CCC(=O)O)NC(=O)C(C)(C)NC(=O)[C@@H](N)Cc1ccc(O)cc1)[C@@H](C)O)[C@@H](C)O)[C@@H](C)CC)[C@@H](C)CC)C(C)C)C(=O)N[C@@H](C)C(=O)NCC(=O)NCC(=O)N1CCC[C@H]1C(=O)N[C@@H](CO)C(=O)N[C@@H](CO)C(=O)NCC(=O)N[C@@H](C)C(=O)N1CCC[C@H]1C(=O)N1CCC[C@H]1C(=O)N1CCC[C@H]1C(=O)N[C@@H](CO)C(N)=O | – | – | healthy subjects, single ascending dose | 8.0 mg | hypoglycaemia (glucose ≤70 mg/dL) | 0% |
| O=C(NC[C@H]1CN(C(=O)c2cc(O)ccc2F)CC[C@@]12CCOC2)c1ccc2n[nH]nc2c1 | rep main protease | enzyme activity, inhibitor | – | 5 µM | inhibition | 13.8% |
| Cn1cnc(Cn2c(=O)[nH]/c(=N\c3cc4cn(C)nc4cc3Cl)n(Cc3cc(F)c(F)cc3F)c2=O)n1 | – | – | human, mild renal impairment, plasma | oral, 375 mg single dose | AUC(0-last) | 1400 µg·h/mL |

Some of these lines once more (series 1):
| SMILES | pKd |
| --- | --- |
| C[C@H]1CC[C@@]2(OC1)O[C@H]1C[C@H]3[C@@H]4CC[C@@H]5C[C@@H](O[C@@H]6O[C@H](CO)[C@H](O)[C@H](O)[C@H]6O[C@@H]6O[C@H](CO)[C@@H](O)[C@H](O)[C@H]6O)CC[C@]5(C)[C@H]4CC[C@]3(C)[C@H]1[C@@H]2C | 4.87 |
